Experimental data pooled from the literature.
Each numbered part is a random draw from the data of one study; scales do not carry over between parts. Values joined by “and” are separate records of one study, mostly repeats; a detail may differ.
Chain of UniProt P10721 (whole entry, unmodified, looked up): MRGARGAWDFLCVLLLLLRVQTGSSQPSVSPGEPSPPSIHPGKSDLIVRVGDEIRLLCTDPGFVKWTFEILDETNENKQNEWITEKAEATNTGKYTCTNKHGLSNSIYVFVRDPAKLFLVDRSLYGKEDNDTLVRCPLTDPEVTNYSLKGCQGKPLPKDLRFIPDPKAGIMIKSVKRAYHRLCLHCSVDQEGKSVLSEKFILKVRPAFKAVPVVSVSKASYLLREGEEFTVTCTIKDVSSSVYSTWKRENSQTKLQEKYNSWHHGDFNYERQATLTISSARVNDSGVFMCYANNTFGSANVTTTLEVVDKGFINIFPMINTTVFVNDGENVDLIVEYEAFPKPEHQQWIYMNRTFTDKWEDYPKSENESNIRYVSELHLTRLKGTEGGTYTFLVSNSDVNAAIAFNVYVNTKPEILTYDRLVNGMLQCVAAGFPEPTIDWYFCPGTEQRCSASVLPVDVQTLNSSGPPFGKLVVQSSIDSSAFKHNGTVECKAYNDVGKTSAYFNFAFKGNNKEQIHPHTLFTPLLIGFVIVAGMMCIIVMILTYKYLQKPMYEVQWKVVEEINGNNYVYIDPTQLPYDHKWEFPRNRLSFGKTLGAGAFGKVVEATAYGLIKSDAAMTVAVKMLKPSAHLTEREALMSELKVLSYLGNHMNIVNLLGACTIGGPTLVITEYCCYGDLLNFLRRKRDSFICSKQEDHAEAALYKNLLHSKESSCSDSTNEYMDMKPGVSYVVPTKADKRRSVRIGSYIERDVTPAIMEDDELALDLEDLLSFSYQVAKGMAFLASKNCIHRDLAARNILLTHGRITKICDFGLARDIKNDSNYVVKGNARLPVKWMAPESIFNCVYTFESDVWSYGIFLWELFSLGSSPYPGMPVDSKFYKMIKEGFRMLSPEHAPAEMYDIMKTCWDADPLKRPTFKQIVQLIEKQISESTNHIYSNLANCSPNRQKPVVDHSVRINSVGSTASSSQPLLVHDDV
Chain of UniProt Q9UBE8 (whole entry, looked up): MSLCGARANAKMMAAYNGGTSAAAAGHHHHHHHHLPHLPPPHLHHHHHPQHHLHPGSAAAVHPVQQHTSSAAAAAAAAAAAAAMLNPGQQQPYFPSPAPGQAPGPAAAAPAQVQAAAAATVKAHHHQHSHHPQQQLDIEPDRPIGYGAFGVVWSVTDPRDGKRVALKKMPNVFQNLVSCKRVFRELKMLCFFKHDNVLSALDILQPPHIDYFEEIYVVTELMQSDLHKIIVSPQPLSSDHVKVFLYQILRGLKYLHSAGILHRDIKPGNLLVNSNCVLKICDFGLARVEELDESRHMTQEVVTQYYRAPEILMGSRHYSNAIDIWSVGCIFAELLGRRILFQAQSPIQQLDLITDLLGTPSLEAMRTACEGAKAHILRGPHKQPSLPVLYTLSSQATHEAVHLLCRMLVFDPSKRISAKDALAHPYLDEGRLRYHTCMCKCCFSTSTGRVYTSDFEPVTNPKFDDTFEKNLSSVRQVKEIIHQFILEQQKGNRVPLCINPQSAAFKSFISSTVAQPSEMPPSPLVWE
Chain of UniProt O75676 (whole entry, looked up): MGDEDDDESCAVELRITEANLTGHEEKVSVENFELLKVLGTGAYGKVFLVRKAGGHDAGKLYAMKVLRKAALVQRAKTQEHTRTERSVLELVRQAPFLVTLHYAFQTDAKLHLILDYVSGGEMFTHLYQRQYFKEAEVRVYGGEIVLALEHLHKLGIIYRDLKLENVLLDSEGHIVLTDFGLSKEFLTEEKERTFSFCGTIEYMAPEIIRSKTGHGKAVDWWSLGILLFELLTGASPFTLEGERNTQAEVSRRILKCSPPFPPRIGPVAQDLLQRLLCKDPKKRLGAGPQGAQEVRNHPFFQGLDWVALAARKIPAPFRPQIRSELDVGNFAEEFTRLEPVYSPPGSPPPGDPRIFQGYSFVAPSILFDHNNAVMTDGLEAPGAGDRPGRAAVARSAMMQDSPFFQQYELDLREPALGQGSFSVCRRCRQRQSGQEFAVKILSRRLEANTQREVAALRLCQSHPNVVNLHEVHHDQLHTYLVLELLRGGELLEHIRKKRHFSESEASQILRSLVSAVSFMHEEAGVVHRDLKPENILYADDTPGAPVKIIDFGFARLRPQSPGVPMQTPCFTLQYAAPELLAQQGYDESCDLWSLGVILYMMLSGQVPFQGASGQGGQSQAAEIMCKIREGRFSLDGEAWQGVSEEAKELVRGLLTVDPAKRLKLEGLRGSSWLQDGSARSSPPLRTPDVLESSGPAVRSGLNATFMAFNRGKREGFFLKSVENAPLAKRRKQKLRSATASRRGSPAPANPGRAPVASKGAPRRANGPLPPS
Chain of UniProt O14733 (whole entry, looked up): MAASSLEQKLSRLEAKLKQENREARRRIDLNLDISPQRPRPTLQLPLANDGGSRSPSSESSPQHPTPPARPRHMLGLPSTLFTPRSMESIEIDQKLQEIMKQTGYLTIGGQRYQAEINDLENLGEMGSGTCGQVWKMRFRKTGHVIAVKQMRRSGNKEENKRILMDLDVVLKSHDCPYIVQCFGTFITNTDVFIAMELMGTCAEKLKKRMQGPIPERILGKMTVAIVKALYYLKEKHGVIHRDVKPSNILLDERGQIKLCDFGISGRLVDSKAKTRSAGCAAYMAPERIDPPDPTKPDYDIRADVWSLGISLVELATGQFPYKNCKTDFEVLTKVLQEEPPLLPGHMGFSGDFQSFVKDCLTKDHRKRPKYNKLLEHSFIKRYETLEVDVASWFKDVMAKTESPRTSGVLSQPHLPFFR
Chain of UniProt Q16512 (whole entry, looked up): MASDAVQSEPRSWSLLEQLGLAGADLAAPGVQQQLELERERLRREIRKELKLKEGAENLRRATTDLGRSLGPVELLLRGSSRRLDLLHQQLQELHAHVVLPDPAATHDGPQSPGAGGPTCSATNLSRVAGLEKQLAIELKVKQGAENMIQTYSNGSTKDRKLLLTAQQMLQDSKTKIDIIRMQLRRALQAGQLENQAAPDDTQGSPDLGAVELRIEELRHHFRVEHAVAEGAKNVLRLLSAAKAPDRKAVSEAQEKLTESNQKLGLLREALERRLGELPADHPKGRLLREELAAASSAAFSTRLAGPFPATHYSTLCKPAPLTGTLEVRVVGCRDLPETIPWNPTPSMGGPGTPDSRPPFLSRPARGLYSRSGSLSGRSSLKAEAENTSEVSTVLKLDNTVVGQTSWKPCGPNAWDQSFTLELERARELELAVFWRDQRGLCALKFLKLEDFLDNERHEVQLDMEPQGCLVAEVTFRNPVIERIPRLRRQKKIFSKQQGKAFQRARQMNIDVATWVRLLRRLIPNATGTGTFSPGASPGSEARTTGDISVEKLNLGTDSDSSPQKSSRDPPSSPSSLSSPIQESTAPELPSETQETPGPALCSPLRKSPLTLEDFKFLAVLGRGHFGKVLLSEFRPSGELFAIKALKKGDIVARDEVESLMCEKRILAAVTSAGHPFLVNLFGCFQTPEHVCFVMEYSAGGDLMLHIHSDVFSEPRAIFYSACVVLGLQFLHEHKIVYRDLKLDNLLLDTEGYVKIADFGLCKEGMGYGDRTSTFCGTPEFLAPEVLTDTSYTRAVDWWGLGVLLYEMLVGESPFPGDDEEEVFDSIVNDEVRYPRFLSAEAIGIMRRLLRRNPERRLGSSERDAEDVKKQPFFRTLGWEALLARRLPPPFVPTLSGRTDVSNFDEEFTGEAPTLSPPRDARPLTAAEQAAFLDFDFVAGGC
Chain of UniProt P49759 (whole entry, looked up): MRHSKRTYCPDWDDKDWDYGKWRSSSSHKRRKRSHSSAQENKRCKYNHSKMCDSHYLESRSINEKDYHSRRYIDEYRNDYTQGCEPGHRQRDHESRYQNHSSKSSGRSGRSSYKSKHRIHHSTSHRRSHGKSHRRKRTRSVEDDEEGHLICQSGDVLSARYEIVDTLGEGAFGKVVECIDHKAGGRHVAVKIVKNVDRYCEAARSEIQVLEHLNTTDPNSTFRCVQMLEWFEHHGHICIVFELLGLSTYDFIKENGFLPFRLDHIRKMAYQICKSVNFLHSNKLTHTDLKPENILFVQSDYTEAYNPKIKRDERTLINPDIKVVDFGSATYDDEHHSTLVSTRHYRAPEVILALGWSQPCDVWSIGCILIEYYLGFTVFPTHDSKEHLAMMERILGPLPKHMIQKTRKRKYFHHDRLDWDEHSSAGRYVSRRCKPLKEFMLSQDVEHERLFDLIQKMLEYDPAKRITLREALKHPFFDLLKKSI

Set 1
Species: mouse
Sample: microsomes or S9
Tested at: 2 µM
Time: 0.5 h
| Compound | remaining compound [%] |
| --- | --- |
| O=S(=O)(c1ccc(Cl)s1)N1CCNCC1 | 77.5 |
| C=C(C)C1Cc2c(C)nn(-c3cccc4ccccc34)c2C1 (stereo not shown) | 0.05 |
| CCOC(=O)CCCOc1nc(C(C)C)c2c(c1C#N)CCCC2 | 40.4 |
| COc1cc(CN2CCN(S(=O)(=O)c3ccc(NC(C)=O)cc3)CC2)cc(OC)c1OC | 12.7 |
| CC1(COc2ccc(Cl)cc2)CC(n2cncn2)C(c2ccc(Cl)cc2)=NO1 (stereo not shown) | 12.3 |
| COc1ccc(C2(CNC(=O)C(F)(F)F)CCCCC2)cc1 | 12.5 |
| CN(CCC1CCOCC1)S(=O)(=O)c1cnn(C)c1 | 98.5 |
| O=C(NCCc1ccccc1)N1Cc2c(sc3c2CCCC3)-n2cccc2C1c1cccs1 (stereo not shown) | 6.69 |
| Clc1cc(Cl)cc(-c2ccc(CNCc3ccncc3)o2)c1 | 5.05 |

Set 2
Target: Calcium/calmodulin-dependent protein kinase type II subunit delta (CAMK2D, Homo sapiens, UniProt Q13557)
Chain of UniProt Q13557 (whole entry, looked up): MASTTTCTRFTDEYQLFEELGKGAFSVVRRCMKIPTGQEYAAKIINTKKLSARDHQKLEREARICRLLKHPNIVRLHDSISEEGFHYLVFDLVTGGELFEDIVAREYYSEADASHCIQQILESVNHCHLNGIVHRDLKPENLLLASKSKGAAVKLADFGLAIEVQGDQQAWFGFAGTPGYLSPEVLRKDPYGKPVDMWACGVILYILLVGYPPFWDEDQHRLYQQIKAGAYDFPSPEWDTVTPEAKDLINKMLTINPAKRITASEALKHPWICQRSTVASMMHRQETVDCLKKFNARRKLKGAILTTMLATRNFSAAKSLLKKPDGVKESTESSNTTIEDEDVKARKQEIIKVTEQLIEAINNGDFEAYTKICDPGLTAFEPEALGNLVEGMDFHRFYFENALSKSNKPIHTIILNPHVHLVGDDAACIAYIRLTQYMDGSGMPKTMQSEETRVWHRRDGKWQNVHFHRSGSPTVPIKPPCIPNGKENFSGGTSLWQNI
Observed: enzyme activity
Mode: inhibitor
Tested at: 0.5 µM
Relative to: control
| Compound | remaining activity |
| --- | --- |
| COc1cc2ncnc(Nc3cccc(Cl)c3)c2cc1OC | 96.1% |
| O=C(NC(NC(=S)Nc1ccc(F)c([N+](=O)[O-])c1)C(Cl)(Cl)Cl)C(c1ccccc1)c1ccccc1 (stereo not shown) | 102% |
| Cc1nc2cc3nc(-c4cccs4)cnc3cc2n1C | 100% |
| Ic1cccc(CSc2nnc(-c3ccncc3)o2)c1 | 96.8% |
| CCOc1nc(NC(=O)Cc2cc(OC)ccc2OC)cc(N)c1C#N | 97.4% |
| CCN(CC)C(=O)c1ccc(Nc2nc(OCC3CCCCC3)c3[nH]cnc3n2)cc1 | 94.5% |
| c1ccc(-c2cnc(Nc3ccc(OCCN4CCCC4)cc3)s2)cc1 | 48.2% |
| O=C1c2ccccc2-c2n[nH]c3cccc1c23 | 83.4% |
| Cc1cc2ncc(-c3ccccc3)nc2cc1C | 88.1% |
| N#C/C(=C\c1ccc(O)c(O)c1)C(=O)NCc1ccccc1 | 104% |
| CCN(CC)CCNC(=O)c1c(C)[nH]c(/C=C2\C(=O)Nc3ccc(Cl)cc32)c1C | 7.25% |
| CCN(CC)CCNC(=O)c1c(C)[nH]c(/C=C2\C(=O)Nc3ccc(F)cc32)c1C | 11.6% |
| CN([C@@H](Cc1ccc(OS(=O)(=O)c2cccc3cnccc23)cc1)C(=O)N1CCN(c2ccccc2)CC1)S(=O)(=O)c1cccc2cnccc12 | 92.8% |
| O=C1C(Cl)=C(N2C(=O)CCC2=O)C(=O)c2ccccc21 | 109% |
| COc1cc2ncnc(Nc3ccc(O)c(Br)c3)c2cc1OC | 95.7% |
| N#Cc1c(NC(=O)c2cccc3ccccc23)sc2c1CCCC2 | 97.7% |
| COc1cc2c(cc1OC)-c1[nH]nc(Nc3cccc(F)c3)c1C2 | 103% |
| c1ccc(-c2[nH]ncc2-c2ccnc3ccccc23)nc1 | 101% |
| Cc1cn(-c2cc(NC(=O)c3ccc(C)c(Nc4nccc(-c5cccnc5)n4)c3)cc(C(F)(F)F)c2)cn1 | 90% |
| Cn1nc2c3c(cccc31)C(=O)c1ccccc1-2 | 90% |
| O=c1cc(-c2cccc3c2Sc2ccccc2S3)oc(N2CCOCC2)c1 | 104% |
| O=C(Nc1cccc(Nc2nccc(Nc3cccc(C(F)(F)F)c3)n2)c1)C1CC1 | 93.5% |
| CN(C)C[C@H]1CCn2c(c(C3=C(c4cn(C)c5ccccc45)C(=O)NC3=O)c3ccccc32)C1 | 82.4% |
| Nc1cccc(-c2cc3c(Oc4cccc(O)c4)ncnc3[nH]2)c1 | 99.8% |

Set 3
SMILES: COc1ccc2c(O[C@@H]3C[C@H]4C(=O)N[C@]5(C(=O)O)CC5/C=C\CCCCC[C@H](NC(=O)OC5CCCC5)C(=O)N4C3)cc(-c3csc(NC(=O)C(C)C)n3)nc2c1C (stereo partly shown)
Observed: cell-free assay
Technique: competition with immobilised ligand
Tested at: 1 µM
| target | remaining binding [%] |
| --- | --- |
| MAP2K7 (Homo sapiens, UniProt O14733) | 81 |
| PRKG1 (Homo sapiens, UniProt Q13976) | 100 |
| TNK1 (Homo sapiens, UniProt Q13470) | 100 |
| NEK11 (Homo sapiens, UniProt Q8NG66) | 84 |
| KIT (Homo sapiens, UniProt P10721, D816V) | 95 |
| EGFR (Homo sapiens, UniProt P00533, L861Q) | 100 |
| CAMK2A (Homo sapiens, UniProt Q9UQM7) | 100 |
| NLK (Homo sapiens, UniProt Q9UBE8) | 99 |
| Ribosomal protein S6 kinase alpha-4, C-terminal kinase domain (RPS6KA4, Homo sapiens, UniProt O75676) | 72 |
| PKN1 (Homo sapiens, UniProt Q16512) | 100 |
| EGFR (Homo sapiens, UniProt P00533, G719S) | 76 |
| KIT (Homo sapiens, UniProt P10721, A829P) | 100 |
| MET (Homo sapiens, UniProt P08581) | 99 |
| CLK1 (Homo sapiens, UniProt P49759) | 98 |
| PIK3CA (Homo sapiens, UniProt P42336, H1047Y) | 100 |

Other studies, line by line
| Structure (SMILES) | assay | system | conditions | quantity | result |
| --- | --- | --- | --- | --- | --- |
| COc1ccc(-c2c(Nc3ccccn3)[nH]c3c(C4=CCCCC4)c(-c4ccccc4)nn3c2=O)cc1 | LC-MS/MS | human, plasma | 50 mg once daily | AUC(0-tau), dose-normalised | 697 ng·h/mL/mg and 646 ng·h/mL/mg and 661 ng·h/mL/mg |

Repeated from above (set 3):
| target | remaining binding [%] |
| --- | --- |
| NEK11 (Homo sapiens, UniProt Q8NG66) | 84 |
| KIT (Homo sapiens, UniProt P10721, D816V) | 95 |
| EGFR (Homo sapiens, UniProt P00533, L861Q) | 100 |
| CAMK2A (Homo sapiens, UniProt Q9UQM7) | 100 |
| NLK (Homo sapiens, UniProt Q9UBE8) | 99 |
| Ribosomal protein S6 kinase alpha-4, C-terminal kinase domain (RPS6KA4, Homo sapiens, UniProt O75676) | 72 |
| PKN1 (Homo sapiens, UniProt Q16512) | 100 |
